Results collected from several papers.
Each line is one published result; not all experiments were run side by side. ± gives the spread as reported.
Target: Cytochrome P450 2D6 (CYP2D6, Homo sapiens, UniProt P10635)
Chain of UniProt P10635 (whole entry, looked up): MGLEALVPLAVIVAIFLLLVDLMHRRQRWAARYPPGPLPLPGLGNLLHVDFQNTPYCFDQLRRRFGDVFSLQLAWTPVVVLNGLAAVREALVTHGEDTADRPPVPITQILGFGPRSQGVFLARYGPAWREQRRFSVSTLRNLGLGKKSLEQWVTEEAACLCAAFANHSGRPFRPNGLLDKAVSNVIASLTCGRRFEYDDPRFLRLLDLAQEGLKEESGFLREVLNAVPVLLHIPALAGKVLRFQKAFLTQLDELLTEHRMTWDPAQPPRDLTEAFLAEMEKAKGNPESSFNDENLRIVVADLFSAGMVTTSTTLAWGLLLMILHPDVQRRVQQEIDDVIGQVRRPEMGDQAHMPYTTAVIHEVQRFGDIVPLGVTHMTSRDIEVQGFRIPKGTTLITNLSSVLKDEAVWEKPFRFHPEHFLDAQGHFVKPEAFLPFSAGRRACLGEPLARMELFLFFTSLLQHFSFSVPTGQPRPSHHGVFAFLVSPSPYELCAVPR

With CCn1ccc(-c2cc(-c3cnn(C)c3)cc([C@@H](C)NC(=O)c3cc(OCCN(C)C)ccc3C)c2)n1 the IC50 was > 50 µM (enzyme activity, inhibitor; pooled human liver microsomes; 10 (unit not given)).
With Cc1ccc(N2CC3CCC(C2)N3C)cc1C(=O)N[C@H](C)c1cc(-c2cnn(C)c2)nc2ccccc12 the IC50 was > 50 µM (enzyme activity).
With Cc1ccc2nc(C)c(C(=O)NCc3cccs3)n2c1 the IC50 was 3.8 µM (inhibitor).
With COc1ccc(F)cc1S(=O)(=O)Nc1cnc2c(c1)C(=O)NCCO2 the IC50 was > 100 µM (enzyme activity, inhibitor; human, liver microsomes; with preincubation).
The IC50 of C[C@H](NCc1ccc(-c2ccc(C(F)(F)F)cc2)cc1)C(N)=O is reported as > 10 µM (enzyme activity, inhibitor, luciferase; pH 7.4).
The IC50 of CCc1ccc([C@@H]2C[C@H](C(F)(F)F)n3ncc(C(=O)NCc4ccc(OC)cc4)c3N2)cc1 is reported as 7.6 µM (inhibitor).
c1ccc(C2(CCNC3CCC4(SCCS4)c4ccccc43)CCOC3(CCCC3)C2)nc1 (stereo not shown) gave an IC50 of 3.24 µM (enzyme activity, inhibitor; human, liver microsomes).
C(#Cc1cncc(OC[C@@H]2CCN2)c1)c1ccccc1 has an IC50 of 143 µM (enzyme activity, inhibitor, fluorescence).
With COc1ccc2nc(C)cc(OCC(=O)Nc3ccccc3OC)c2c1 the IC50 was 32 µM (inhibitor).
With CCCCCc1cc(O)c2c(c1)OC(C)(C)C1CCC(C(=O)OC3OC(C(=O)O)C(O)C(O)C3O)=CC21 (stereo not shown) the IC50 was 8.1 ± 1.1 µM (inhibitor; 30 min preincubation without NADPH).

A few entries again:
With CCCCCc1cc(O)c2c(c1)OC(C)(C)C1CCC(C(=O)OC3OC(C(=O)O)C(O)C(O)C3O)=CC21 (stereo not shown) the IC50 was 8.1 ± 1.1 µM (inhibitor; 30 min preincubation without NADPH).
